# Measurements of several laboratories.
# Parts stem from different laboratories: compare values within a part only.

# Sample 1 — method: protein binding microarray; form: double-stranded DNA, one strand shown; medium: in vitro; concentration: not given; baseline: not given; reading: higher = stronger binding
# Target: Histone acetyltransferase KAT6A, winged helix 1, GST fusion (KAT6A, Homo sapiens, UniProt Q92794, residues 1-85)
# Setting: 8-mer, flanks averaged, mean of 2 arrays, mostly near background
# Residues (chain): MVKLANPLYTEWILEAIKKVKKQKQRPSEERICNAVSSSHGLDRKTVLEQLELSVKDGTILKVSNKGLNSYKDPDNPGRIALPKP
Sequence,E-score
ATACGACA,-0.184
CACACCGG,0.253
CATTTGAC,-0.0232
AAAGCATT,-0.167

# Sample 2 — method: aptamer microarray, sandwich; form: DNA with 2'F-ANA; medium: in vitro; concentration: 200 nM; together with: Cy3 exosite-II aptamer, 400 nM; reading: higher = stronger binding; sequence: GGTTGGTGTGGTTGG
# Target: Prothrombin, mature alpha-thrombin (F2, Homo sapiens, UniProt P00734)
# Setting: whole 15-mer aptamer, many near background
Modification,mean fluorescence intensity [a.u.]
2'F-ANA at 2 4 10 11 13 14 15,85.7
2'F-ANA at 3 8 11 15,982
2'F-ANA at 2 3 5 9 12 14,59.6
2'F-ANA at 1 4 11,99.9
2'F-ANA at 2 4 5 10 11 12 13 14 15,153

# Sample 3 — method: protein-binding microarray; form: double-stranded DNA, one strand shown; medium: in vitro; concentration: 250 nM; setting: 60-bp whole probe; together with: salmon DNA 0.4 mg/ml; baseline: random background probes; reading: higher = stronger binding; constant ends, left off below: GCCTAGCAC … GTCTTGATTCGCTTGACGCTGCTG
# Target: Interferon regulatory factor 5, full length, phosphomimetic (IRF5, Homo sapiens, UniProt Q13568-2, residues 1-514, K96S/S451D/S453D/S456D/S462D)
Sequence,log fluorescence
CAAAGAAAAAGAAAAAAAAAGGTGCTA,0.901 z-score
GACGGTATCAGGACTGGGGACGTGCTA,0.163 z-score
TTAGATTTCAGTTCCGAATAGTGCTAG,2.15 z-score
GGAGAGTTCCAGGAGGTCGAGTGCTAG,-0.412 z-score
TTTTTTTTTTTTTTTGGAATGTGCTAG,1.32 z-score
GACGGTTTCATTTCCCTGACGTGCTAG,2.43 z-score
TTAGGACTGGACTATCGGTTTGTGCTA,5.07 z-score

# Single results of other studies
Substance,target,test,system,setting,how to read,endpoint,value
"PhoQ, residues 284 288 289 292 302 303 AGCYAI","PhoP, residues 12 14 15 18 19 HLGGL (Escherichia coli, UniProt P23836)","Sort-seq, measured: YFP reporter",E. coli,"PhoQ-PhoP variant library, together with: 10 µM Mg2+","baseline: high Mg2+ state, higher = stronger signaling",fold induction,0.88

# Excerpt of the above (sample 3):
Sequence,log fluorescence
GACGGTATCAGGACTGGGGACGTGCTA,0.163 z-score
